{"data": "Published values from different studies", "note": "Numbered parts are unrelated; each lists some results of a single study. Positions count from the first letter of the parent shown."}
{"data": "Block 1", "target": "CCND2, cyclin fold, Cln2 fusion (human)", "technique": "yeast growth competition, sequencing", "medium": "yeast", "notes": "weak parent motif", "relative to": "not given", "reading": "higher = stronger binding", "starting sequence": "CDC25A docking peptide (human); PPHRRRLLFACSP; partner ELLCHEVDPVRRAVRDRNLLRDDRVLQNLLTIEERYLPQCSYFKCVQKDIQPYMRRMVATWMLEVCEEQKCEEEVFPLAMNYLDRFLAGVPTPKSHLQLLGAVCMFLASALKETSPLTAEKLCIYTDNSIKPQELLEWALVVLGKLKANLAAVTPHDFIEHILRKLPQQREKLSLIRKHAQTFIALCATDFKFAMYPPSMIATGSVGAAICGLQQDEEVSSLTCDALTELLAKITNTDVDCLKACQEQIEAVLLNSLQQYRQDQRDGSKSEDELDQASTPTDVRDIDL"}
{"Variant": "PPHRRRLNFACSP [L8N]", "normalised enrichment score": 0.104}
{"Variant": "PPHRRRLLFACSW [P13W]", "normalised enrichment score": -0.38}
{"Variant": "PPHRRRLEFACSP [L8E]", "normalised enrichment score": -0.131}
{"Variant": "PPHRRRLLIACSP [F9I]", "normalised enrichment score": 0.101}
{"Variant": "PPHRRRYLFACSP [L7Y]", "normalised enrichment score": 0.0182}
{"Variant": "PWHRRRLLFACSP [P2W]", "normalised enrichment score": 0.0857}
{"Variant": "PPHRRRLLYACSP [F9Y]", "normalised enrichment score": 0.145}
{"Variant": "PPHRRTLLFACSP [R6T]", "normalised enrichment score": 0.265}
{"Variant": "PPHCRRLLFACSP [R4C]", "normalised enrichment score": 0.363}
{"Variant": "PPHIRRLLFACSP [R4I]", "normalised enrichment score": 0.223}
{"Variant": "PPHRRRLLFAFSP [C11F]", "normalised enrichment score": -0.163}
{"Variant": "PPHRRHLLFACSP [R6H]", "normalised enrichment score": 0.0275}
{"Variant": "PFHRRRLLFACSP [P2F]", "normalised enrichment score": 0.113}
{"Variant": "PPHRRRLLFAQSP [C11Q]", "normalised enrichment score": 0.33}
{"Variant": "DPHRRRLLFACSP [P1D]", "normalised enrichment score": -0.207}
{"Variant": "PPHRRVLLFACSP [R6V]", "normalised enrichment score": 0.129}
{"Variant": "PDHRRRLLFACSP [P2D]", "normalised enrichment score": 0.11}
{"Variant": "PPHRRRLLDACSP [F9D]", "normalised enrichment score": -0.331}
{"Variant": "PPHRRRLLFACMP [S12M]", "normalised enrichment score": 0.325}
{"data": "Block 2", "target": "RNA binding protein fox-1 homolog 2, RRM domain, GST-SBP tag (RBFOX2, Homo sapiens, UniProt O43251-10, residues 100-194)", "technique": "RNA Bind-n-Seq", "molecule type": "RNA", "medium": "in vitro", "tested at": "365 nM", "notes": "natural RNA segment, single round, ends assumed", "relative to": "no-protein control", "reading": "higher = stronger binding", "constant ends, left off below": "GGGAGUUCUACAGUCCGACGAUC … UGGAAUUCUCGGGUGCCAA", "Residues (chain)": "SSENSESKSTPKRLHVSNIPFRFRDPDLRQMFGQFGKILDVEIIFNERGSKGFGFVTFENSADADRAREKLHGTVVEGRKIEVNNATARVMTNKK"}
{"Strand": "AAAGCUUCUUAUAAUCAUUCUUAACUUCUUGGUAGCUAGAAAUUUAGAGUAGUUGAAAUCUUUAGGAAUGAACUUCUGAGGGCCAAAAAAUGUGACUGACGGGAACAAUU", "RBNS enrichment (R)": 0.731}
{"Strand": "CAUGCUUUCAUUAUCAAGUGUAGUCAGCCGUCUGUUGAGGUCAGGUUUCCUUCCGUUAGCUUUUGGGUUUCCUCGGUGGCUCUGGCAAGGCUGCUGCUGUGUCAUUCGGU", "RBNS enrichment (R)": 0.368}
{"Strand": "CUUCUUAGCCUCUUUGUUUAGGGGCCACUGGAGAAUUCCACUUAGGGAGACUGGAUAUAGUAGUGCAUACCUAUAACUCCAGCACUUGGGACGUGGAGGUAGGUGGAUCA", "RBNS enrichment (R)": 0.663}
{"Strand": "CUGUGUUUUUUCAUCUUGUUUAGGAAUGUUUUGAGAUUAAUGUGCUUAAAAGUCCUACGUGACUGAUUUUAAACAUUGUGAUAAAAUUAAUUUUCAGUAGAAUAGUUGAA", "RBNS enrichment (R)": 0.572}
{"Strand": "AAGCACAACACUAAUGUUCGUUUCCUUAGACCUCAGUUCAAGUGCCCCUAUUUAUUUCAAUAAGAACGCACAUAUCCCAGCUGUUUUUUGUUUGUCACCUCUAUUUAGUU", "RBNS enrichment (R)": 3.3}
{"Strand": "ACUGUGUGUCUCCCUCAUGGAGUGCGAGGAUUUGAGCAUUUUCUGCUUCUUUAUGCUUUUUCAUUUAAAACAUGUUUUAAAGCAUAUUCUCACUGAGUCUAUUGUUUGUC", "RBNS enrichment (R)": 0.427}
{"Strand": "CAGUGCUUGGCAAUCGUCCUUCUUACAGCAGUAAGCAAAAAUUAGCAAGGAACGUGUCCGCAUGGCCUCUCAGCUUGGUAUGUGAAAAGGAAAUAGCAUACUUUUUCAAA", "RBNS enrichment (R)": 1.23}
{"Strand": "GCUUCUCGUUCUUAGCAGGGAUGAACAGGCACACUGAGGUGAACAUCUGGCCCAAAUGAAGCAUACCCUGUCACGCCCUUGGGAAAACAAAUAGGACCGAACAAAGCUAC", "RBNS enrichment (R)": 0.468}
{"Strand": "AAAGCACAGUUGUAACUACCUGAAAUAUGAAGAUCCAGUUUCAUACAAACAUUUGUAUGACGUGAAUAGUUGAUGGCAUUUUUUUGUCAUGAAAAAAAUAAUGUAAAUCA", "RBNS enrichment (R)": 0.948}
{"Strand": "ACUAGGUGAUUAGGCCUAUUGGUAGAUAGCCAUUGUUGAACUACCUGGACCACAAUUUGUAAGCCAUUCUAAUACAUCCCCUUUAUAUGUAUUUUUUCAUUCUAUAAGUU", "RBNS enrichment (R)": 1.09}
{"Strand": "CUGCCCUUUUGGCAAAGUUACCUUGAACAAAGAAUCUUAAGGGUUUAUUAAGAACUCUUUAUUUUCUUCAUACCCUGUUCUCUGCAGUGCUUUCUAACAGCUUCUGGGUG", "RBNS enrichment (R)": 0.276}
{"Strand": "GUGAGUUCCAGCUAGCAGGCUUUACAUCUGGGGAAAGGAAAACCAGGGGUUUUAGCUCUGUUCUCUGCUCCCAUCCUUCGCUCACCAGCUGAGUGAGAACAUGAACUUUU", "RBNS enrichment (R)": 0.722}
{"data": "Block 3", "target": "RING finger protein unkempt homolog, zinc fingers 1-6, GST-SBP tag (UNK, Homo sapiens, UniProt Q9C0B0, residues 30-357)", "technique": "RNA Bind-n-Seq", "molecule type": "RNA", "medium": "in vitro", "tested at": "not given", "notes": "RNA with constant flanks, human-mouse chimeric sites, ends assumed", "relative to": "input RNA pool", "reading": "higher = stronger binding", "constant ends, left off below": "GGGAGUUCUACAGUCCGACGAUC … CAACAGAGGAUUGAGCAUCA", "Target sequence (chain)": "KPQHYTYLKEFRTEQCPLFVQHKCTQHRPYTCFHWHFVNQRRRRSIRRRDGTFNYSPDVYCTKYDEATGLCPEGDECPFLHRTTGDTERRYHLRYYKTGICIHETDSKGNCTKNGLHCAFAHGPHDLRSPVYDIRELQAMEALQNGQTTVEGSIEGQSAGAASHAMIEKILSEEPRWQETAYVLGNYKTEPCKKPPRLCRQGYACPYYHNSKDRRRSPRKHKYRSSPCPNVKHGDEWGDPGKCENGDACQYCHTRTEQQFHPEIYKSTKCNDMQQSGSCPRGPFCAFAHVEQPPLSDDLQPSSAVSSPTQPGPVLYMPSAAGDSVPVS"}
{"Strand": "AGAGAAAUGAGAAAGAAUCUCACACAAGAUGAGAUGCAAAGAAUGUCUACUAGAGUCCUUUUGGCGACUCUUUCCAUUCCUAUUACUCCUGAGCGAACUGAUAUUGCUCGACUUUUGGAU", "bound/input enrichment [ratio]": 0.0781}
{"Strand": "GAGCGUCUUGCCCGCACCGGGAUCAUAGUGACCACUAGUGAGGCUGUCCUCCUACAGCUGGUGGCUGACAAAGACCAUCCAAAAUUCAAGGAAAUUCAGAACCUAAUUAAGGCGAGUGCC", "bound/input enrichment [ratio]": 0.164}
{"Strand": "UAAAUUAGGGCUGCCGUUUUCUGUUUCUCCCUGGGCUGCGGAAAGCCAGAAGAUUUUAUCUAGCUUAUACAAGGCUGCUGGAGCUUGCUCCCUCCCGCCACGAGGGUGUUUUUGGCUGCA", "bound/input enrichment [ratio]": 0.421}
{"Strand": "UUGGAAGGACCAGAGCCUAAUCAACUGAAACCACUAGUCAUACAGGCUAUGCCCACCCUAAUAGAAUUAAUGAAAGACCCCAGUGUAGUUGUUCGAGACACAACAGCGUGGACUGUGGGC", "bound/input enrichment [ratio]": 3.36}
{"Strand": "GAAUCCUACUCAGGCGGAUUUUGCAACACCAAGCUCAAGUAGCAAUUAUCUUAGUCACAGUAGGGUAGUUUUGGGGCUCUGUGGCCAGGGUUUUAUUCACAUGCAGGUUUGGAAAAUGUA", "bound/input enrichment [ratio]": 1.89}
{"Strand": "CAGUCCCCGUGUCCCAGUGCAGGACGAGAACAUGGACAACUCAAAGCGGACCCUCUAUUGUAGUUCUUUUUUUAAAUAAUGUGCUAUUAUUGUUUGUCUUUUUUUUUUUUUUUUUAAAGA", "bound/input enrichment [ratio]": 2.95}
{"Strand": "UGACAAGGGCACUGCAGAGCCAUGCCUUUCCUUGACAUCCAGAAAAGGCUGGGCAUCAGCCUGGACCGGCACUUUAUAAUCCAGAGUGCAGAACAGCCCUAUAAGAACGCCGCUCGGUGC", "bound/input enrichment [ratio]": 0.0697}
{"Strand": "GGCCUGGACCUUCCUGGGGCUAGUACAAAUAGCGGCAGUGGAGGCUCAGAGGAAAGUUUUGUUAGUGGAGGCAGUGGUAGAGGCCGUCAUGUACGGUCCUUUACUCGAUAGAUGUGUUCU", "bound/input enrichment [ratio]": 0.354}
{"Strand": "CCAAUUGUGGAGCAGUACUUGAAGACAAAGAAAAAUUCUAGUCAUUUAAUCAUCAAGUACAUUAGCUGCCGCCUGCUGACACUCAUCGUUAUACUGUUAGCGUGUAUCUACCUGGGCUAU", "bound/input enrichment [ratio]": 0.686}
{"Strand": "AGAGCCCAGGAUGUUGAUGCUACAAAUCCAAAUUACGAAAUUAUGUGUAUGAUCAGAGACUUCAGAGGAAGUUUGGAUUAUAGACCACUAACAACAGCAGAUCCUAUUGAUGAACAUAGG", "bound/input enrichment [ratio]": 0.466}
{"Strand": "UAAGUUAUUUUGUACAGCUUUGUAAAUUCUUAACAUUUUUAUAUUGCCAUGUUUAUUUUGUUUGGGUAAUUUGGUUCAUACAUGGCCUAGCUAAGGUAAUGAACAUCGUAAUUAUAGAUU", "bound/input enrichment [ratio]": 0.821}
{"data": "Block 4", "target": "ABI1, truncated, D143A, DHFR fusion (Arabidopsis thaliana)", "technique": "DHFR PCA, deep sequencing", "medium": "yeast", "notes": "methotrexate growth selection, single substitutions", "added": "(+)-ABA 4.8 µM", "relative to": "wild-type fitted maximum", "reading": "higher = stronger binding", "starting sequence": "PYL1, truncated, DHFR fusion (Arabidopsis thaliana); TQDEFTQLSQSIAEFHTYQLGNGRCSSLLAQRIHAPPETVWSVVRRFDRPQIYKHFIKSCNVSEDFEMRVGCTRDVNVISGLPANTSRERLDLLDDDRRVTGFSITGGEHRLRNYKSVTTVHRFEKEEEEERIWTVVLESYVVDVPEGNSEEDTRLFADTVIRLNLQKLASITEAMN; partner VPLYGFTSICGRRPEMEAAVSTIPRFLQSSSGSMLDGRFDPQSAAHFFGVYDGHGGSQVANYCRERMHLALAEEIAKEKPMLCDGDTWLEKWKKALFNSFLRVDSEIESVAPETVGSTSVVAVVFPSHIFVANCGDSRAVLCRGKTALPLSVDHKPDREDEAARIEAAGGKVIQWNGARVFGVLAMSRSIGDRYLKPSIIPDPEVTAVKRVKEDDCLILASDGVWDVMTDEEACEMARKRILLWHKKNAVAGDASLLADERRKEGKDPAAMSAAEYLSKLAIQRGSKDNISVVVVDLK"}
{"Variant": "S26L", "relative binding score": "-6.48%"}
{"Variant": "A84Y", "relative binding score": "69.6%"}
{"Variant": "F124N", "relative binding score": "25.6%"}
{"Variant": "I133R", "relative binding score": "62.3%"}
{"Variant": "Y18W", "relative binding score": "65.5%"}
{"Variant": "T120C", "relative binding score": "3.72%"}
{"Variant": "D153W", "relative binding score": "-17.5%"}
{"Variant": "F56T", "relative binding score": "-4.19%"}
{"Variant": "H34G", "relative binding score": "57.1%"}
{"note": "For quick reference, copied from above (block 4):"}
{"Variant": "F124N", "relative binding score": "25.6%"}
{"Variant": "I133R", "relative binding score": "62.3%"}
{"Variant": "F56T", "relative binding score": "-4.19%"}
